{"data": "Assay results gathered from unrelated publications", "note": "Numbered parts are unrelated; each lists some results of a single study."}
{"data": "Block 1", "target": "Prothrombin, mature alpha-thrombin (F2, Homo sapiens, UniProt P00734)", "technique": "aptamer microarray, sandwich", "molecule type": "DNA with 2'F-ANA", "matrix": "in vitro", "tested at": "200 nM", "setting": "whole 15-mer aptamer, many near background", "together with": "Cy3 exosite-II aptamer, 400 nM", "reading": "higher = stronger binding", "strand": "GGTTGGTGTGGTTGG"}
{"Modification": "2'F-ANA at 1 3 8 10 11 14", "mean fluorescence intensity [a.u.]": 70.6}
{"Modification": "2'F-ANA at 1 2 9 12 13 15", "mean fluorescence intensity [a.u.]": 348}
{"Modification": "2'F-ANA at 1 2 7 10 11 13 15", "mean fluorescence intensity [a.u.]": 59.3}
{"Modification": "2'F-ANA at 3 5 6 7 9 11 12", "mean fluorescence intensity [a.u.]": 173}
{"Modification": "2'F-ANA at 1 2 8 10 13 15", "mean fluorescence intensity [a.u.]": 57.3}
{"data": "Block 2", "target": "Centromere-binding protein 1, full length, N-terminal tag (CBF1, Saccharomyces cerevisiae, UniProt P17106, residues 1-351)", "technique": "protein-binding microarray", "molecule type": "double-stranded DNA, one strand shown", "matrix": "in vitro", "tested at": "0.8 µM", "setting": "whole 60-bp probe, no competitor", "reading": "higher = stronger binding", "shared flanks, not repeated": "… GTCTTGATTCGCTTGACGCTGCTG", "UniProt P17106, sequence (whole entry, looked up)": "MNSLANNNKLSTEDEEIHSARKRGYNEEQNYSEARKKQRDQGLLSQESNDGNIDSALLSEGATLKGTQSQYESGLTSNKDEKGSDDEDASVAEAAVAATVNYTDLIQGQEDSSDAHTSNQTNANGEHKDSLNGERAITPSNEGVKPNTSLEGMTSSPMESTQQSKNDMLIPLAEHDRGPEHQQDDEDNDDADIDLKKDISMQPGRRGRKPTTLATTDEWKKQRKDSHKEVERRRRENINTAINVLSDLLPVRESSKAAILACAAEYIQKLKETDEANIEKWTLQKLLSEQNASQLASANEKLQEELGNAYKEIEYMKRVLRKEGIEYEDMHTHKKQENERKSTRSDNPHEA"}
{"Strand": "CTATTTGATAATGAGCATGTGATCCGGAAAGCTTTC", "fluorescence intensity [a.u.]": 5730}
{"Strand": "CTACGTCTGCTCTTCCACGTTCAGATGTTCCCTTTC", "fluorescence intensity [a.u.]": 521}
{"Strand": "GAACAACTCGTACGTGATGGGGATTCTAAACCTTAG", "fluorescence intensity [a.u.]": 549}
{"Strand": "GAATTTCTTAATGATGATGGCGTCTGTCTGACATAG", "fluorescence intensity [a.u.]": 527}
{"Strand": "TGTACGAAGCTATTACACATGGCTATAGTAGTTAGG", "fluorescence intensity [a.u.]": 560}
{"data": "Block 3", "target": "Interferon regulatory factor 5, full length, phosphomimetic (IRF5, Homo sapiens, UniProt Q13568-2, residues 1-514, S451D/S453D/S456D/S462D)", "technique": "protein-binding microarray", "molecule type": "double-stranded DNA, one strand shown", "matrix": "in vitro", "tested at": "940 nM top", "setting": "60-bp whole probe", "together with": "salmon DNA 0.4 mg/ml", "baseline": "random background probes", "reading": "higher = stronger binding"}
{"Strand": "GCCTAGCACTTAGGACTGCTACTGCTTCAGTGCTAGGTCTTGATTCGCTTGACGCTGCTG", "fitted relative affinity [z-score]": -0.236}
{"Strand": "GCCTAGCACGACGGTATCCTTCACCTGACGTGCTAGGTCTTGATTCGCTTGACGCTGCTG", "fitted relative affinity [z-score]": 0.44}
{"Strand": "GCCTAGCACTGAGGTATCGGTATCGGTTAGTGCTAGGTCTTGATTCGCTTGACGCTGCTG", "fitted relative affinity [z-score]": 8.55}
{"Strand": "GCCTAGCACTCAAGGCTGGTCTCTAACACTGTGCTAGTCTTGATTCGCTTGACGCTGCTG", "fitted relative affinity [z-score]": -0.419}
{"data": "Mixed results"}
{"Molecule": "PhoQ, residues 284 288 289 292 302 303 AGHLVA", "target": "PhoP, residues 12 14 15 18 19 HEGLL (Escherichia coli, UniProt P23836)", "assay": "Sort-seq, refers to: YFP reporter", "system": "E. coli", "setting": "PhoQ-PhoP variant library, together with: 10 µM Mg2+", "how to read": "baseline: high Mg2+ state, higher = stronger signaling", "endpoint": "fold induction", "value": 1.99}
